Assay results gathered from unrelated publications.
Lines come from different studies, so protocols differ.
Cell line: HepG2

SMILES | test | conditions | viability
CC(=O)O[C@@H]1CC[C@@]2(C)C(CC[C@]3(C)C2C(=O)C=C2C4[C@@H](C)[C@H](C)CC[C@]4(C)CC[C@]23C)[C@@]1(C)C(=O)OCc1cn(-c2cc(=O)oc3ccccc23)nn1 (stereo partly drawn) | cell growth or viability, MTT | 25 µM, 24 h | 94%
CCn1cc(-c2ccnc(Nc3ccc(N4CCNCC4)cc3)n2)c(-c2cccnc2)n1 | cell growth or viability | 30 µM | 82%
NC[C@H]1O[C@H](O[C@H]2[C@H](OCCCCCCCCCCCCn3cc(CNc4nc(NCc5cn(CCCCCCCCCCCCO[C@@H]6[C@@H](O)[C@H](N)C[C@H](N)[C@H]6O[C@H]6O[C@H](CN)[C@@H](O)C[C@H]6N)nn5)nc(NCc5cn(CCCCCCCCCCCCO[C@@H]6[C@@H](O)[C@H](N)C[C@H](N)[C@H]6O[C@H]6O[C@H](CN)[C@@H](O)C[C@H]6N)nn5)n4)nn3)[C@@H](O)[C@H](N)C[C@@H]2N)[C@H](N)C[C@@H]1O | cell growth or viability, resazurin | 27 µM, 48 h | 70%
CC(=O)O[C@@H]1CC[C@@]2(C)C(CC[C@]3(C)C2C(=O)C=C2C4[C@@H](C)[C@H](C)CC[C@]4(C)CC[C@]23C)[C@@]1(C)C(=O)OCC(=O)Oc1cc(C)ccc1C(C)C (stereo partly drawn) | cell growth or viability, MTT | 25 µM, 24 h | 91%
COc1cc([C@@H]2OC[C@@H]3[C@H]2CO[C@H]3c2cc(OC)c(O)c(OC)c2)cc(OC)c1O | cell growth or viability, CCK-8 | 20 µM, 24 h | 92.6%
CCOC(=O)c1cn(-c2nc(C)n[nH]2)nn1 | cell growth or viability, MTT | 500 µM, 72 h | 89.9%
NCC1OC(OC2C(N)CC(N)C(OC3OC(CO)C(O)C(N)C3O)C2OCCCCn2cc(CNc3nc(NCc4cn(CCCCOC5C(OC6OC(CN)C(O)CC6N)C(N)CC(N)C5OC5OC(CO)C(O)C(N)C5O)nn4)nc(NCc4cn(CCCCOC5C(OC6OC(CN)C(O)CC6N)C(N)CC(N)C5OC5OC(CO)C(O)C(N)C5O)nn4)n3)nn2)C(N)CC1O (stereo not drawn) | cell growth or viability, resazurin | 27 µM, 48 h | 88%
CCN(c1nc(N[C@H](CC(N)=O)C(=O)NC)nc(N2CCN(c3ccccc3C#N)CC2)n1)C1CCCCC1 | cell growth or viability, resazurin | 50 µM, 72 h | > 95%
CC(C)=CCc1c(O)cc(CO)cc1O | cell growth or viability, CCK-8 | 10 µM, 24 h | 96.6%
CC(=O)O[C@@H]1CC[C@@]2(C)C(CC[C@]3(C)C2C(=O)C=C2C4[C@@H](C)[C@H](C)CC[C@]4(C)CC[C@]23C)[C@@]1(C)C(=O)N/N=C\c1ccccc1 (stereo partly drawn) | cell growth or viability, MTT | 25 µM, 24 h | 92%
CC1=CC(OC(=O)c2ccccc2)C2(COC(=O)c3ccccc3)CCC(=C(C)C)C2C(O)CC2(C)OC2CC1 (stereo not drawn) | cell growth or viability, CCK-8 | 20 µM, 24 h | 93.9%
O=C(Cc1c(-c2ccccc2)n[nH]c1-c1ccccc1)NO | CytoTox-ONE | 30 µM, 24 h, 10% FBS | 100%

Some of these lines once more:
SMILES | test | conditions | viability
CC(C)=CCc1c(O)cc(CO)cc1O | cell growth or viability, CCK-8 | 10 µM, 24 h | 96.6%
